# Experimental data of several laboratories.
# Protocols differ between the studies behind these lines. ± gives the spread as reported.
Compound,cell line,assay,test system,setting,quantity,result
O=C(Nc1cccnn1)N1CCC(=Cc2cccc(Oc3ccc(C(F)(F)F)cn3)c2)CC1,COS cells expressing human FAAH,,cell lysate,"100 nM, 1 h",intracellular concentration,11.7 ± 0.6 nM
Nc1c(C(=O)Nc2nccs2)sc2nc(-c3ccccc3)cc(C(F)(F)F)c12,MDA-MB-231,MTT,,"100 µM, 72 h",viability,28 ± 3%
CN(C(=O)n1cnc(-c2ccc[n+]([O-])c2)c1)C1CCCCC1,COS cells expressing human FAAH,,COS cell culture supernatant,"100 nM, 0 h",concentration,91.7 ± 3 nM
COc1ccc(NC(=O)CSc2nc(-c3ccccc3)cc(C)c2C#N)cc1,MDA-MB-231,MTT,,"100 µM, 72 h",viability,40 ± 7%
O=C(Nc1cnccc1Cl)N1CCN(Cc2ccc3c(c2)OC(F)(F)O3)CC1,COS cells expressing human FAAH,,COS cell culture supernatant,"100 nM, 1 h",concentration,90.1 ± 2.7 nM
Oc1ccc(C2(c3ccc(O)cc3)c3ccccc3-c3ccccc32)cc1,"HepG2 spheroids, dissociated",annexin V-FITC/PI flow cytometry,,"40 µM, 24 h",viable cells,58%
CC(C)CC(=O)OC[C@H]1O[C@@](C#N)(c2ccc3c(N)ncnn23)[C@H](O)[C@@H]1O,Caco-2,,,"90 µM, 2 h, added: verapamil 100 µM",efflux ratio,1.71
O=c1ccc2ccccc2o1,NHEK,"mitochondrial reserve capacity, Seahorse",,6 h,point of departure,592 µM
CC(c1ccccc1)(c1ccc(O)cc1)c1ccc(O)cc1,"HepG2 spheroids, dissociated",annexin V-FITC/PI flow cytometry,,"40 µM, 24 h",viable cells,71 ± 11.8%
Cc1cc(-c2ccccc2)c2c(N)c(C(=O)Nc3ccon3)sc2n1,MDA-MB-231,MTT,,"100 µM, 72 h",viability,49 ± 5%
O=S(=O)(c1ccc(O)cc1)c1ccc(O)cc1,"HepG2 spheroids, dissociated",annexin V-FITC/PI flow cytometry,,"1 µM, 24 h",early apoptotic cells,15.7 ± 2.36%
Cc1cc(C)c(C#N)c(SC=CC(=O)Nc2ccon2)n1,MDA-MB-231,MTT,,"100 µM, 72 h",viability,66 ± 4%
